Results gathered from unrelated publications.
Matrix: plasma

Structure (SMILES)	host	route	dose	setting	half-life [h]
C/C=C/C=C/C/C=C/CCCCCCCc1cccc(O)c1O	male Wistar rat	intravenous	20 mg/kg	–	1.1
c1ccc(C2(CCNC3CCC4(SCCS4)c4ccccc43)CCOC3(CCCC3)C2)nc1 (centres unmarked)	Sprague-Dawley rat	intravenous	0.5 mg/kg	–	0.76
C[C@@H]1CC[C@H]2[C@@H](C)CO[C@@H]3O[C@@]4(C)CC[C@@H]1[C@]32OO4	male Sprague-Dawley rat	oral	100 mg/kg	–	5.22
CCCC[C@@H]1NC(=O)[C@H](Cc2ccc(O)cc2)NC(=O)[C@@H]2CCCN2C(=O)[C@H](CC(=O)O)NC(=O)[C@H](C)NC(=O)[C@H](Cc2ccccc2)NC(=O)[C@@H]2CSCCC(=O)N3CN(CN(C3)C(=O)CCSC[C@@H](C(=O)N[C@@H](C)C(N)=O)NC1=O)C(=O)CCSC[C@H](NC(C)=O)C(=O)N[C@@H](CC(C)(C)C)C(=O)N1CCC[C@H]1C(=O)N[C@@H](CCC(=O)O)C(=O)N[C@H](CCCCNC(=O)CCc1cn(CCOCCOCCOCCN(CCOCCOCCOCCC(=O)N[C@H]3CSCCC(=O)N4CN5CN(C4)C(=O)CCSC[C@H](NC(=O)[C@@H](CCC(=O)O)NC(=O)[C@H](Cc4cccc6ccccc46)NC(=O)[C@@H]4CCCN4C3=O)C(=O)N[C@@H](CCSC)C(=O)N[C@@H](CCCCNC(=N)N)C(=O)N[C@@H](CCC(=O)O)C(=O)N[C@@H](Cc3c[nH]c4ccccc34)C(=O)N[C@@H](CO)C(=O)N[C@@H]([C@@H](C)O)C(=O)N3CCC[C@H]3C(=O)N3C[C@H](O)C[C@H]3C(=O)N[C@@H](Cc3c[nH]c4ccccc34)C(=O)N[C@H](C(N)=O)CSCCC5=O)CCOCCOCCOCCn3cc(CCC(=O)NCCCC[C@H]4NC(=O)[C@H](CCC(=O)O)NC(=O)[C@@H]5CCCN5C(=O)[C@H](CC(C)(C)C)NC(=O)[C@@H](NC(C)=O)CSCCC(=O)N5CN6CN(C5)C(=O)CCSC[C@H](NC(=O)[C@H](Cc5ccc(O)cc5)NC(=O)[C@@H]5CCCN5C4=O)C(=O)N[C@@H](Cc4ccccc4)C(=O)N[C@@H](C)C(=O)N[C@@H](CC(=O)O)C(=O)N4CCC[C@H]4C(=O)N[C@@H](Cc4ccc(O)cc4)C(=O)N[C@@H](CCCC)C(=O)N[C@H](C(=O)N[C@@H](C)C(N)=O)CSCCC6=O)nn3)nn1)C(=O)N1CCC[C@H]1C(=O)N[C@@H](Cc1ccc(O)cc1)C(=O)N2	rat	intravenous	2 mg/kg	–	0.37
Cc1cc(Nc2nc(C[C@@]3(C(=O)O)CCN(Cc4cccc(Cl)c4F)[C@H](C)C3)cc(C)c2F)n[nH]1	Sprague-Dawley rat	intravenous	0.5 mg/kg	single dose	5.1
CCCCCCCC[C@@H]1NC(=O)[C@@H](Cc2ccccc2)NC(=O)[C@H](CCN)NC(=O)[C@@H](NC(=O)[C@H](CCN)NC(=O)[C@@H](NC(=O)[C@H](CCN)NC(=O)c2ccc(-c3ccccc3)cc2)[C@@H](C)O)CCNC(=O)[C@H]([C@@H](C)O)NC(=O)[C@H](CCN)NC(=O)[C@H](CCN)NC1=O	rat	intravenous	–	single dose	2.77 to 3.4
COc1ccc(-n2cc(C(=O)N3C[C@]4(OC(=O)c5ccccc5NC(C)=O)CC[C@H](OC)[C@@]56[C@@H]4C[C@@H]([C@@H]35)[C@@]3(O)C[C@H](OC)[C@H]4C[C@@H]6[C@]3(O)[C@H]4OC)nn2)cc1	Sprague-Dawley rat	intravenous	2 mg/kg	–	0.385
C[C@@](O)(C(F)F)[C@H](NC(=O)c1ccc(C#CC#CC2CC2)cc1)C(=O)NO	rat	intravenous	40 mg/kg	–	1.6

Excerpt of the above:
Structure (SMILES)	host	route	dose	setting	half-life [h]
C[C@@](O)(C(F)F)[C@H](NC(=O)c1ccc(C#CC#CC2CC2)cc1)C(=O)NO	rat	intravenous	40 mg/kg	–	1.6
